Assay results of several laboratories.
Each numbered part is a random draw from the data of one study; scales do not carry over between parts.
Chain of UniProt Q99759 (whole entry, looked up): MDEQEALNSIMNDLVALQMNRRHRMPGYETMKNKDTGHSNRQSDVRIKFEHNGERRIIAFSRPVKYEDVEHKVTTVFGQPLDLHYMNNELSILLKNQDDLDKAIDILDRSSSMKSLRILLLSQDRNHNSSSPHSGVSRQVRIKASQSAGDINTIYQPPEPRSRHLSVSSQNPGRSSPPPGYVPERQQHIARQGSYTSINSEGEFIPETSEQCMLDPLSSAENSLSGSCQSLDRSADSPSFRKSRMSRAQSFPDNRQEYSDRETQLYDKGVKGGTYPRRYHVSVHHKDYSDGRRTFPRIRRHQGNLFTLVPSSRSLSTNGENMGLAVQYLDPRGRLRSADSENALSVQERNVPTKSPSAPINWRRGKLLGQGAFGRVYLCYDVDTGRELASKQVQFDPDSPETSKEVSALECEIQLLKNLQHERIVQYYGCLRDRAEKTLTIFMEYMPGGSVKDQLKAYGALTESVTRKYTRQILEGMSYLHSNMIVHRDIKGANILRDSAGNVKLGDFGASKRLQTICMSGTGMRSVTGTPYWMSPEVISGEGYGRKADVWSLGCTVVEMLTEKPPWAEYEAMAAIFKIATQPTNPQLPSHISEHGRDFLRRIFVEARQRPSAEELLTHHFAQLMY
Chain of UniProt Q9Y6M4 (whole entry, looked up): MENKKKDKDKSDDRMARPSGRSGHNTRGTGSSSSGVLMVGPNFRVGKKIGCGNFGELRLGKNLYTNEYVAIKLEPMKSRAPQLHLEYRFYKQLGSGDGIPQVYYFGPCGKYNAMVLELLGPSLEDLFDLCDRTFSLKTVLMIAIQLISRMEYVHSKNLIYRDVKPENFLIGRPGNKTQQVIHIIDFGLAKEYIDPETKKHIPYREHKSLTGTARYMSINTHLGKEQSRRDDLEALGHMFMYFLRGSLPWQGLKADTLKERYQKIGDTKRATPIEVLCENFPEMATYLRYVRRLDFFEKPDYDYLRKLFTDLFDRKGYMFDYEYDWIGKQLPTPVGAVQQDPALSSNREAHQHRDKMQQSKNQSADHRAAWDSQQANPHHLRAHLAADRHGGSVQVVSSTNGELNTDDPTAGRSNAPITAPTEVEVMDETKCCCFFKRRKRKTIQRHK
Chain of UniProt O60674 (whole entry, looked up): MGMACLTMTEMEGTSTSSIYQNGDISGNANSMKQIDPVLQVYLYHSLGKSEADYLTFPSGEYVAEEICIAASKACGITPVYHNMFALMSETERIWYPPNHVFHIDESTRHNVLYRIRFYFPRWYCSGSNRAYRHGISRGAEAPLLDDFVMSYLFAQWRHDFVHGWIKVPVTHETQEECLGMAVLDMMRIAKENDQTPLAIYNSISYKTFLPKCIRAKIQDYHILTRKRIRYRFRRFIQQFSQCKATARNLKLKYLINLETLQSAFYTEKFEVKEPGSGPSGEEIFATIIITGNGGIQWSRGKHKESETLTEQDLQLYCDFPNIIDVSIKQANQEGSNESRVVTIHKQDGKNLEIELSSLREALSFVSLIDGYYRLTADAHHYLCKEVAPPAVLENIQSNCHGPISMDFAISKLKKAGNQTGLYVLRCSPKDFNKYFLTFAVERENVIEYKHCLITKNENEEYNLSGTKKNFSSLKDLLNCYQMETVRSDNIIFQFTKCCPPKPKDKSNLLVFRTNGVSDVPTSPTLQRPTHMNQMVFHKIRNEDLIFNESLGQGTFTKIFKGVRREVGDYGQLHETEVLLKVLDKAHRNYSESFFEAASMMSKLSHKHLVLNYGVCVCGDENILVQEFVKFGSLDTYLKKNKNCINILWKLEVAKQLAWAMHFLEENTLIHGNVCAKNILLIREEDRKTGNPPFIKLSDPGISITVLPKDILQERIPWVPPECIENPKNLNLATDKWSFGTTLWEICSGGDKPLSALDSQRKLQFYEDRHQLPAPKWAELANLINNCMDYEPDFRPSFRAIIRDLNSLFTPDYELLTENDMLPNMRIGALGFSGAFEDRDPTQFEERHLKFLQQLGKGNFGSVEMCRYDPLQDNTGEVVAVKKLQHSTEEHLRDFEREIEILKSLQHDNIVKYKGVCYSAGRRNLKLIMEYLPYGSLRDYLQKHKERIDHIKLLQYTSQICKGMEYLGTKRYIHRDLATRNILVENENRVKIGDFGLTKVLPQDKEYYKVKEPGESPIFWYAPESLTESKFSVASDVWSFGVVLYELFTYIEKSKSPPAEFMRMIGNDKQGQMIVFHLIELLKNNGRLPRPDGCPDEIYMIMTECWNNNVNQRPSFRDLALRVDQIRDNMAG
Chain of UniProt Q9NY57 (whole entry, looked up): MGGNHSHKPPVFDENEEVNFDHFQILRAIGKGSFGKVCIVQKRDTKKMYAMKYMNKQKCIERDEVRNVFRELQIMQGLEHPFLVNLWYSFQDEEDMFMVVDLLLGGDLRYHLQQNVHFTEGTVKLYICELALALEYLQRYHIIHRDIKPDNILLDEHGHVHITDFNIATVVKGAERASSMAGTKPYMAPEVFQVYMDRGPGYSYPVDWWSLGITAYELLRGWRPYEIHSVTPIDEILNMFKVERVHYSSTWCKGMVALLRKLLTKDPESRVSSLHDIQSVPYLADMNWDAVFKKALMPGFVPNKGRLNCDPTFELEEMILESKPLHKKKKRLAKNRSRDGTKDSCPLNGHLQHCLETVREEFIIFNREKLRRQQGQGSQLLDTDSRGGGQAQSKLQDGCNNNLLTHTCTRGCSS
Chain of UniProt Q9P2K8 (whole entry, unmodified, looked up): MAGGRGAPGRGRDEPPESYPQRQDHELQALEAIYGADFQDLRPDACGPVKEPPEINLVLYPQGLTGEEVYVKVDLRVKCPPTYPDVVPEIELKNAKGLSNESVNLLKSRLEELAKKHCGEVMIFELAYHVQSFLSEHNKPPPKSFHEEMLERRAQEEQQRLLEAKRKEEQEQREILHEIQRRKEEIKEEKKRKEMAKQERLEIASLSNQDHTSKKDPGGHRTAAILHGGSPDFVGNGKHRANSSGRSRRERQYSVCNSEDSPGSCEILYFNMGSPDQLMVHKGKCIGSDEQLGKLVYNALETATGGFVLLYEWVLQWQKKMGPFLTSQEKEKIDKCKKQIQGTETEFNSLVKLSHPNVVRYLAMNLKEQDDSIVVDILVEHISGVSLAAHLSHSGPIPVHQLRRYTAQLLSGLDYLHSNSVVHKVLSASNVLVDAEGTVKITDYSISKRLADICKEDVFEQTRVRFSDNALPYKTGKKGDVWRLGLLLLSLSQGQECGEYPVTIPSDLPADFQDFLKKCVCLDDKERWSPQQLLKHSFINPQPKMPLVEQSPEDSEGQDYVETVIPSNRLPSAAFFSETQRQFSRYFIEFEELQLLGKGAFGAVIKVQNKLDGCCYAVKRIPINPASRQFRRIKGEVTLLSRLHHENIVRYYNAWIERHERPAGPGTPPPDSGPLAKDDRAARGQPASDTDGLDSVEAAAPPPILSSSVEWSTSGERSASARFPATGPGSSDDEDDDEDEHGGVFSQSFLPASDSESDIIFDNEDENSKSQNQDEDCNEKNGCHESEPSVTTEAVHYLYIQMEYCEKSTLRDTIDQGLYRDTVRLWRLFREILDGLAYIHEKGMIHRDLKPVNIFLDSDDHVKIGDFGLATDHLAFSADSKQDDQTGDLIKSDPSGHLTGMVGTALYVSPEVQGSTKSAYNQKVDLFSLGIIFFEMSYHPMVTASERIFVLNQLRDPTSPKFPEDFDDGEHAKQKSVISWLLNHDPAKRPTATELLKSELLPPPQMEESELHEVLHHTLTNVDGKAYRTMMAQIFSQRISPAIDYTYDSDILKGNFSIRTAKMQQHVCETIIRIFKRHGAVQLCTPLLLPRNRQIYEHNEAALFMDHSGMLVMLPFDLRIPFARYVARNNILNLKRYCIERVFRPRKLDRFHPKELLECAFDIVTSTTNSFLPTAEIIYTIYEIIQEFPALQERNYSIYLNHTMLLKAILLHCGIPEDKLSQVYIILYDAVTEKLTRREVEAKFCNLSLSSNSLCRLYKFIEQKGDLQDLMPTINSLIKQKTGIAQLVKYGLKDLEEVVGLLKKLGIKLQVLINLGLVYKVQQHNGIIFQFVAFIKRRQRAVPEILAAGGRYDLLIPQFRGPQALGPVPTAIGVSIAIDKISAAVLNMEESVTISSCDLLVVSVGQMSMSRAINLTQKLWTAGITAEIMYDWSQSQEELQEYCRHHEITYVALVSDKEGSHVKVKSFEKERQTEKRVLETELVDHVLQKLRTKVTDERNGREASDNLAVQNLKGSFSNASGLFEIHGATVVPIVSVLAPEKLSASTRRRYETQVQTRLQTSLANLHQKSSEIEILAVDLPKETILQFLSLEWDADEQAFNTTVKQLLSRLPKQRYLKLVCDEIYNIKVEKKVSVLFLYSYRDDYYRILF

Set 1 — observed: enzyme activity; action: inhibitor; tested at: 0.5 µM; baseline: control
Target: Ribosomal protein S6 kinase beta-2 (RPS6KB2, Homo sapiens, UniProt Q9UBS0)
Chain of UniProt Q9UBS0 (whole entry, looked up): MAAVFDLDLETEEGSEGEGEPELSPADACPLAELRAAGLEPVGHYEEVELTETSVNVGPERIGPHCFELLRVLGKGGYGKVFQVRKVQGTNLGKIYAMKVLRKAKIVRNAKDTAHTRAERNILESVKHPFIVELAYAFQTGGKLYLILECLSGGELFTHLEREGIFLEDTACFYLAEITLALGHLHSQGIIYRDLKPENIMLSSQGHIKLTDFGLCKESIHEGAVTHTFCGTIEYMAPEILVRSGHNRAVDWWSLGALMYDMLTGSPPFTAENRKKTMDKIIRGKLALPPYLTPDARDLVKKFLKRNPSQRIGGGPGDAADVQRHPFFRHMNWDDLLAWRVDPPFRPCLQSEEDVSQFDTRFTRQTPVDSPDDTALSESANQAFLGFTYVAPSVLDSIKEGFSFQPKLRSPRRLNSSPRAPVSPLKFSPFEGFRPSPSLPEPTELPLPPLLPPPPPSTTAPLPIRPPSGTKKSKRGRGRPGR
| Compound | remaining activity |
| --- | --- |
| CN(C)S(=O)(=O)c1ccc2c(c1)/C(=C/c1cc3c([nH]1)CCCC3)C(=O)N2 | 92.6% |
| CCCNC(=O)Nc1ccc(Oc2ncnc3cc(OC)c(OC)cc23)cc1Cl | 104% |
| O=C1Nc2ccccc2/C1=C\c1c(Cl)[nH]c2ccccc12 | 99.4% |
| CCCCc1c(-c2ccc(OC)cc2)[nH]c2nccnc12 | 99.7% |
| COc1ccc2c(c1)c(C1=C(c3c[nH]c4ccccc34)C(=O)NC1=O)cn2CCCN(C)C | 65.4% |
| Cc1cc(Nc2cc(N3CCN(C)CC3)nc(Sc3ccc(NC(=O)C4CC4)cc3)n2)[nH]n1 | 94.4% |
| CN1CCN(c2ccc3nc(-c4c(N)c5c(F)cccc5[nH]c4=O)[nH]c3c2)CC1 | 100% |
| c1ccc2c(-c3ccncc3)c[nH]c2c1 | 97.8% |
| O=c1cc(N2CCOCC2)oc2c(-c3ccccc3)cccc12 | 94.9% |

Set 2 — observed: cell-free assay; method: competition with immobilised ligand; tested at: 0.1 µM
SMILES: Cn1nc(C(=O)NCc2ccc(C(=O)O)cc2)cc1-c1ccc2[nH]ccc2c1
| target | remaining binding [%] |
| --- | --- |
| IKBKB (Homo sapiens, UniProt O14920) | 93 |
| MAP3K3 (Homo sapiens, UniProt Q99759) | 78 |
| BRSK1 (Homo sapiens, UniProt Q8TDC3) | 86 |
| SRC (Homo sapiens, UniProt P12931) | 100 |
| Tyrosine-protein kinase JAK2, JH1 (JAK2, Homo sapiens, UniProt O60674) | 90 |
| Ribosomal protein S6 kinase alpha-2, C-terminal kinase domain (RPS6KA2, Homo sapiens, UniProt Q15349) | 98 |
| PRKD3 (Homo sapiens, UniProt O94806) | 89 |
| DDR1 (Homo sapiens, UniProt Q08345) | 89 |
| Insulin receptor (INSR, Homo sapiens, UniProt P06213) | 100 |
| eIF-2-alpha kinase GCN2, C-terminal kinase domain (EIF2AK4, Homo sapiens, UniProt Q9P2K8, S808G) | 94 |
| Aurora kinase B (AURKB, Homo sapiens, UniProt Q96GD4) | 92 |
| PIK3CA (Homo sapiens, UniProt P42336, E542K) | 88 |
| STK32B (Homo sapiens, UniProt Q9NY57) | 100 |
| CSNK1G3 (Homo sapiens, UniProt Q9Y6M4) | 94 |
| EIF2AK2 (Homo sapiens, UniProt P19525) | 84 |
| ANKK1 (Homo sapiens, UniProt Q8NFD2) | 100 |
| HASPIN (Homo sapiens, UniProt Q8TF76) | 77 |

Set 3 — cell line: HaCaT; tested at: 100 µM; time: 60 h
| Structure (SMILES) | viability |
| --- | --- |
| CC(C)NCC(O)COc1cccc2[nH]c3ccccc3c12 (stereo not shown) | 16.3% |
| Cc1c(-c2ccc(O)cc2)n(Cc2ccc(OCCN3CCCCCC3)cc2)c2ccc(O)cc12 | 22.1% |
| C=CC1=C(C(=O)O)N2C(=O)[C@@H](NC(=O)/C(=N\OCC(=O)O)c3csc(N)n3)[C@H]2SC1 | 116% |
| Cc1c(CNCS(=O)(=O)O)c(=O)n(-c2ccccc2)n1C | 147% |
| CCCCCCCCCCCCCCCCOc1nc2ccc(C)cc2c(=O)o1 | 134% |
| COc1ccc(CN(CCN(C)C)c2ccccn2)cc1 | 146% |

Further values, each from its own experiment
T1: G-quadruplex RNA, G-quadruplex (Homo sapiens); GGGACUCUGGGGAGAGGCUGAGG
| SMILES | target | method | tested at | notes | binding |
| --- | --- | --- | --- | --- | --- |
| CCc1c(C)c2cc3nc(cc4nc(cc5c(CC)c(C)c(cc1[nH]2)n5C)C(C)=C4CCC(=O)O)C(CCC(=O)O)=C3C | T1, G-quadruplex RNA, G-quadruplex (Homo sapiens) | fluorescence turn-on |  | KCl 150 mM | binds |
| C[C@@H]1CN(c2ccc(-c3cc(C(=O)NCCOCCOCCOCCOCCNC(=O)/C=C/c4[nH]cc(C(=O)N[C@@H](CC(N)=O)c5ccc(F)c(Cl)c5)c4-c4ccc(Cl)cc4F)ccc3F)cc2NC(=O)c2c[nH]c(=O)cc2C(F)(F)F)C[C@H](C)N1C | WDR5 (Homo sapiens, UniProt P61964) | SPR | concentration not given |  | 43.1% |

A few entries again (set 2):
| target | remaining binding [%] |
| --- | --- |
| Insulin receptor (INSR, Homo sapiens, UniProt P06213) | 100 |
| eIF-2-alpha kinase GCN2, C-terminal kinase domain (EIF2AK4, Homo sapiens, UniProt Q9P2K8, S808G) | 94 |
| Aurora kinase B (AURKB, Homo sapiens, UniProt Q96GD4) | 92 |
